{"data": "Published values pooled from the literature", "note": "Each line is one published result; not all experiments were run side by side."}
{"Molecule": "colistin hydrochloride", "target or system": "Acinetobacter baumannii", "assay": "broth microdilution", "system": "ATCC 19606", "endpoint": "MIC", "result": "0.06 µg/mL"}
{"Molecule": "ramoplanin", "target or system": "Acinetobacter baumannii", "assay": "broth microdilution", "system": "ATCC 17978", "endpoint": "MIC", "result": "640 µM"}
{"Molecule": "gentamicin sulfate", "target or system": "Acinetobacter baumannii", "system": "ATCC 19606, susceptible", "setting": "18 h, 37 °C, LED light 1.57 mW for 10 min", "endpoint": "MIC", "result": "0.5 µM"}
{"Molecule": "colistin", "target or system": "Acinetobacter baumannii", "system": "clinical strain 1E3", "endpoint": "MIC", "result": "0.5 µg/mL"}
{"Molecule": "colistin sulfate", "target or system": "Acinetobacter baumannii", "system": "DSM 30007", "setting": "compound alone", "endpoint": "MIC", "result": "0.125 µM"}
{"Molecule": "colistin", "target or system": "Acinetobacter baumannii", "assay": "broth microdilution", "system": "clinical isolate RKI-No_30/16", "endpoint": "MIC", "result": "1 µg/mL"}
{"Molecule": "colistin", "target or system": "Acinetobacter baumannii", "assay": "broth microdilution", "system": "ATCC 19606", "endpoint": "MIC", "result": "< 0.125 µg/mL"}
{"Molecule": "Polymyxin B", "target or system": "Acinetobacter baumannii", "assay": "broth microdilution", "system": "ATCC 19606", "endpoint": "MIC", "result": "1 µg/mL"}
{"Molecule": "GSGAGIATEV", "target or system": "human MAGI1-2/6 PDZ construct (MBP fusion)", "assay": "automated holdup", "system": "peptide, crude extract", "setting": "concentration not given, uncorrected, unit not given", "how to read": "baseline: biotin control resin, higher = stronger binding", "endpoint": "binding intensity", "result": 0.432}
{"Molecule": "polymyxin B", "target or system": "Acinetobacter baumannii", "assay": "broth microdilution", "system": "pandrug-resistant colistin-resistant clinical isolate, Mueller-Hinton broth", "setting": "24 h, 37 °C", "endpoint": "MIC", "result": "> 63 µg/mL"}
{"note": "A few entries again:"}
{"Molecule": "GSGAGIATEV", "target or system": "human MAGI1-2/6 PDZ construct (MBP fusion)", "assay": "automated holdup", "system": "peptide, crude extract", "setting": "concentration not given, uncorrected, unit not given", "how to read": "baseline: biotin control resin, higher = stronger binding", "endpoint": "binding intensity", "result": 0.432}
